Experimental data from different studies.
Each line is one published result; not all experiments were run side by side. ± marks the error that the study gave.
Sequence of UniProt Q8TD19 (whole entry, looked up): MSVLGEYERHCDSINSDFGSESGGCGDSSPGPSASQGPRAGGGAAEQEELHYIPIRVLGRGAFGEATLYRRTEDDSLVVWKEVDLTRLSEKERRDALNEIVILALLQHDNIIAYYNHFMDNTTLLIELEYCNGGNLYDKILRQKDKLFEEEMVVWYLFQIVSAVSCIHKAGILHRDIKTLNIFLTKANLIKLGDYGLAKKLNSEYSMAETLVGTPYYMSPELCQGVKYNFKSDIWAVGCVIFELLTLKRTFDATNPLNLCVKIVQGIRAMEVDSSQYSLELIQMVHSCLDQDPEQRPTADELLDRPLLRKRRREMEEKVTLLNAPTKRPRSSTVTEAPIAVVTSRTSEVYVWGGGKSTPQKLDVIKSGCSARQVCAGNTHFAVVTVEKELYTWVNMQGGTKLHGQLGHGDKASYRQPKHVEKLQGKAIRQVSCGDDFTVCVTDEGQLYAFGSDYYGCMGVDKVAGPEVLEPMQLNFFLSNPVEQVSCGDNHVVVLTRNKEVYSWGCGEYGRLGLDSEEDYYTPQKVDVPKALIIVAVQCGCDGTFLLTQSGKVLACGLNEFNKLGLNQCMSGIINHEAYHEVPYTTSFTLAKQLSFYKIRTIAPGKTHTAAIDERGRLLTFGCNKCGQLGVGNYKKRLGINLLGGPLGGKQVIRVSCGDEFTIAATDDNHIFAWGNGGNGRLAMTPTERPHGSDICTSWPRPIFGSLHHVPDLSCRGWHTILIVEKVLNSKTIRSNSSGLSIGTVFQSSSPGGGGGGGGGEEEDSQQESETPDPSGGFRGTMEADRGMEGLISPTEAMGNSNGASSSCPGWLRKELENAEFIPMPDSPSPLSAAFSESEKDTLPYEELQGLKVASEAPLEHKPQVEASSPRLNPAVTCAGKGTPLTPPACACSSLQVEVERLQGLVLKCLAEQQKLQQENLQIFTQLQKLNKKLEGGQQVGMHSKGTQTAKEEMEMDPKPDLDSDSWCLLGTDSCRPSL
Sequence of UniProt P20813 (whole entry, looked up): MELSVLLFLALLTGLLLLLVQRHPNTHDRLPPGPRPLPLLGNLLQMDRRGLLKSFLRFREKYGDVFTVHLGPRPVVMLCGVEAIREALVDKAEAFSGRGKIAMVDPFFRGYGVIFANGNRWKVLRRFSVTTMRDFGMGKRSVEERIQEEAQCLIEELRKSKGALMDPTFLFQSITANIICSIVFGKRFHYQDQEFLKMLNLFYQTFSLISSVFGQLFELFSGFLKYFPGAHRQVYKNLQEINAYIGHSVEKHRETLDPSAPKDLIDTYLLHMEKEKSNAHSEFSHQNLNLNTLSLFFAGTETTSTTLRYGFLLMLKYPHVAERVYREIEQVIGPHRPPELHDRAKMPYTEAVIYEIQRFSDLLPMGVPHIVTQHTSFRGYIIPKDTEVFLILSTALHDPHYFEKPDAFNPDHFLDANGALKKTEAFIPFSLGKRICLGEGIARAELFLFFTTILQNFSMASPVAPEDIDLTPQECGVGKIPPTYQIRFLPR
Sequence of UniProt Q9HCP0 (whole entry, looked up): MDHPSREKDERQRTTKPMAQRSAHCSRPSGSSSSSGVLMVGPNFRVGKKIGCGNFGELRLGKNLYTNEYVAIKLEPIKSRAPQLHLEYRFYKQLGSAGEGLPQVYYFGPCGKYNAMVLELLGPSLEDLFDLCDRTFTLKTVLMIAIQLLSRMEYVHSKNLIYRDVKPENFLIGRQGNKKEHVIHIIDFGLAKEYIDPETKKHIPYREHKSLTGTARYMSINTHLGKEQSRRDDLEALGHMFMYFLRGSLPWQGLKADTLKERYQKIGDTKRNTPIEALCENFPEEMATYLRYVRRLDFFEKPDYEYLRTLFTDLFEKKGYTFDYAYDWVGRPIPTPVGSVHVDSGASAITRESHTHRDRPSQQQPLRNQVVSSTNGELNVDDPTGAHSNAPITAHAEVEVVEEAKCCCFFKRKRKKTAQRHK
Sequence of UniProt Q9P2K8 (whole entry, looked up): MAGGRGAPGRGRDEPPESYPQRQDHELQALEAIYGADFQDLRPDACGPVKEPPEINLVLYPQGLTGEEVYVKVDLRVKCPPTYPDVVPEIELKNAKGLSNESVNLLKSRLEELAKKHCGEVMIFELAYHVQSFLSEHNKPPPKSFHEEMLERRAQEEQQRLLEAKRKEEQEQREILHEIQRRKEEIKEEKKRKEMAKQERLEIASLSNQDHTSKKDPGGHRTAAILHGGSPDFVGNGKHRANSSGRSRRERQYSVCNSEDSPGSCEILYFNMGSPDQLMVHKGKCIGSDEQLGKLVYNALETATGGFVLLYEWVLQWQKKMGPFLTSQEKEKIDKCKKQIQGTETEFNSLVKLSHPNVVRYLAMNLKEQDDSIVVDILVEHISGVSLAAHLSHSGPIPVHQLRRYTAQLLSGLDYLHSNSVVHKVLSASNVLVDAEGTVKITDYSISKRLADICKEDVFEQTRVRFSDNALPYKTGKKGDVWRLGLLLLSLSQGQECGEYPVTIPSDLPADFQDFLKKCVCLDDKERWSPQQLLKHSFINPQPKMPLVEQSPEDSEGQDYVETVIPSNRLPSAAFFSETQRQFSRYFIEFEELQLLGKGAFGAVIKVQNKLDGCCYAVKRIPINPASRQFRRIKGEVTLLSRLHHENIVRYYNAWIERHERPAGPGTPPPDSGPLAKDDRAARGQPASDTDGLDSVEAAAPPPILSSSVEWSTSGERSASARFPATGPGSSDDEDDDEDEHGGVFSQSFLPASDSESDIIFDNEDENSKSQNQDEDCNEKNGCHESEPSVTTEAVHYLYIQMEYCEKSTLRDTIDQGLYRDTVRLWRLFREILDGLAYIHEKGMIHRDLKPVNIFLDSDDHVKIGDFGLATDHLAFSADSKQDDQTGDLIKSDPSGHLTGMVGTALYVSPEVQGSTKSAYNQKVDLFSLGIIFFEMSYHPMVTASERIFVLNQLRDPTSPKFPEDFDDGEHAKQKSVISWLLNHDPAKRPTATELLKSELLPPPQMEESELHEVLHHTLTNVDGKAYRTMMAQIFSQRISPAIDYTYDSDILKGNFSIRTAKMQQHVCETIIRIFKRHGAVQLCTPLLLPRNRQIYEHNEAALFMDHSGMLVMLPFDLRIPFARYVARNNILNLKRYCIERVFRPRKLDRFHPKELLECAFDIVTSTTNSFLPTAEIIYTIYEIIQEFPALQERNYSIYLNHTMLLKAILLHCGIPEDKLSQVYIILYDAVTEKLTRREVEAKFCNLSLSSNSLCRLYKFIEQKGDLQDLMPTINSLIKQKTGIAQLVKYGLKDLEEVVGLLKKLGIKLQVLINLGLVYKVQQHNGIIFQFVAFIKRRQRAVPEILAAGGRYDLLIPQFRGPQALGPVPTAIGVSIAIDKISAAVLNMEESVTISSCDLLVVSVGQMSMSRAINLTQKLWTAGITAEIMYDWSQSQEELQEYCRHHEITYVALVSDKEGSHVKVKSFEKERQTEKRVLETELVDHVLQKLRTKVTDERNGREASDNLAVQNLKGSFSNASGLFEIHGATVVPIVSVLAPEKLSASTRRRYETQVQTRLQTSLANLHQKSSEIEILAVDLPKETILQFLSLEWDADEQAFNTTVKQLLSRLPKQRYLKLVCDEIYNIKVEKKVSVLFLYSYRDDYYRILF

For `CN1Cc2cc(Cl)ccc2-n2c(nnc2C2CCN(c3cccc([18F])n3)CC2)C1`, the tissue uptake was 11.8 ± 1.13 %ID/g (C57BL/6 mouse male, kidney; intravenous, 3.7 MBq, 5 min).
`CCCCC(CC)COC(=O)CC(C(=O)OCC(CC)CCCC)S(=O)(=O)O.COC(=O)Nc1nc2cc(C(=O)c3ccc(F)cc3)ccc2[nH]1` (stereo not drawn) gave a solubility of ~30 mg/mL (visual inspection; Capryol 90).
The concentration of `CCc1nn(C)c2nc(-c3ccc(C(=O)O)cc3)nc(NCc3ccccc3)c12` is reported as 228 ng/mL (male CD-1 mouse, plasma; intravenous, 1 mg/kg, 1 h).
`CC(C)N1CCCCC1C(=O)NC(Cc1ccc(-c2ccccc2)cc1)B(O)O` (stereo not drawn) has an AUC(0-t) of 1.64 µM·h (male Sprague-Dawley rats, plasma; oral, 1 mg/kg, 24 h, citrate ester).
For `O=C1NC2(CC2)COc2ncc(F)cc2[C@H]2COCCN2c2ccn3ncc1c3n2`, the fibrinogen was 1.87 ± 0.22 g/L (Sprague-Dawley rats, male, blood; oral, 2.5 mg/kg/day, end of treatment, 4-week subacute toxicity).
`Cc1cc(-c2ccc3ccccc3c2)nnc1NCCN1CCN(C)CC1` gave a remaining compound of 98% (Cytochrome P450 2B6 (CYP2B6, Homo sapiens, UniProt P20813); substrate; recombinant enzyme; 100 nM, 0.5 h).
`COc1cnc2cccc(N3CCc4c(cc(Cn5ccnc5)cc4-c4cn(C)nc4C(F)(F)F)C3=O)c2c1`: “body weight change” 7.1% (CD-1 mouse; intraperitoneal, 50 mg/kg once daily, day 4, dose-escalation tolerability; relative to: day 1).
For `CN(C)[C@H]1C[C@@]23CC[C@@]4(O2)C(=CC[C@]2(C)[C@@H](c5ccc6ccncc6c5)CC[C@H]24)C=C3[C@@H](O)[C@@H]1O`, the inhibition was 7.1% (EIF2AK4 (Homo sapiens, UniProt Q9P2K8); ATP probe labelling, inhibitor, KiNativ profiling; 1 µM).
Under “chronic toxic concentration”, `CC[C@H](C)[C@H](NC(=O)[C@H](CC(C)C)NC(=O)CNC(=O)[C@H](Cc1c[nH]cn1)NC(=O)[C@@H](NC(=O)[C@H](Cc1c[nH]c2ccccc12)NC(=O)[C@H](CCCCN)NC(=O)CNC(=O)[C@@H](NC(=O)[C@H](Cc1c[nH]cn1)NC(=O)[C@H](Cc1c[nH]cn1)NC(=O)[C@@H](NC(=O)CNC(=O)[C@H](Cc1c[nH]cn1)NC(=O)[C@H](Cc1ccccc1)NC(=O)[C@H](CC(C)C)NC(=O)[C@H](CC(C)C)NC(=O)CNC(=O)[C@H](CC(C)C)NC(=O)[C@@H](N)Cc1ccccc1)C(C)C)C(C)C)[C@@H](C)CC)C(=O)N[C@@H](Cc1c[nH]cn1)C(=O)NCC(=O)N[C@@H](Cc1c[nH]cn1)C(=O)N[C@@H](Cc1c[nH]cn1)C(N)=O` is recorded as 5 µM (zebrafish embryos 28 hpf, E3 medium; 24 h).
`Cn1nc(NS(C)(=O)=O)c2c(Cl)ccc(-n3c([C@H](Cc4cc(F)cc(F)c4)NC(=O)Cn4nc(C(F)F)c5c4C(F)(F)[C@@H]4C[C@H]54)nc4nc(OCCC(F)(F)F)ccc4c3=O)c21` gave a tmax of 10 h (human, plasma; oral, 125 mg single dose, powder in bottle, median).
`Cc1nc2cccc(OCC(C)(C)C(=O)NC(C)C)c2c(N)c1C(=O)[O-].[Na+]` — result for “revertant colonies per plate”: 116 ± 13 (Salmonella typhimurium; TA100; 5.0 mg per plate, with S9, plate incorporation).
`CC(C)[C@@H]1NC(=O)CNC(=O)[C@H](CC(N)=O)NC(=O)[C@H](CCCNC(=N)N)NC(=O)[C@H](Cc2ccc(O)cc2)NC(=O)[C@H](C(C)C)NC(=O)[C@@H](NC(=O)[C@@H](NC(=O)[C@H](CC(N)=O)NC(=O)[C@H](Cc2c[nH]c3ccccc23)NC(=O)[C@H](C)NC(=O)[C@H](Cc2ccccc2)NC(=O)CNC(=O)[C@H](CCCCN)NC(=O)[C@H](Cc2ccccc2)NC(=O)[C@H](Cc2ccccc2)NC(=O)[C@H](CCCCN)NC(=O)OCC2c3ccccc3-c3ccccc32)C(C)C)CSSC[C@@H](C(=O)N[C@@H](Cc2c[nH]cn2)C(=O)N[C@@H](CCCNC(=N)N)C(=O)N[C@@H](CCCNC(=N)N)C(=O)N[C@@H](C)C(=O)N[C@@H](CC(N)=O)C(N)=O)NC(=O)[C@H](C(C)C)NC(=O)[C@H](CCCNC(=N)N)NC1=O` gave a neutrophils of 18.7 ± 0.98% (ICR mice, blood; intraductal mammary, 5 mg/kg, day 5).
`CC(C)[C@H]1NC(=O)C[C@H]2/C=C/CCSSC[C@@H](NC1=O)C(=O)N[C@H](Cc1cccc3ccccc13)C(=O)NCC(=O)O2` has an inhibition of 1.5% (CSNK1G1 (Homo sapiens, UniProt Q9HCP0); enzyme activity, inhibitor; 10 µM).
The tissue uptake of `CC[C@H](C)[C@H](NC(=O)[C@H](CCCCN)NC(=O)CNC(=O)[C@H](CC(C)C)NC(=O)[C@H](Cc1ccccc1)NC(=O)[C@H](CCCCN)NC(=O)[C@H](CO)NC(=O)[C@H](Cc1ccccc1)NC(=O)[C@H](Cc1c[nH]c2ccccc12)NC(=O)[C@H](CCC(N)=O)NC(=O)[C@@H](NC(=O)[C@H](Cc1ccccc1)NC(=O)CCCCCNC(=O)CN1CCN(CC(=O)O)CCN(CC(=O)O)CCN(CC(=O)O)CC1)C(C)C)C(=O)N[C@@H](CCC(=O)O)C(=O)N1CCC[C@H]1C(=O)N[C@@H](CC(=O)O)C(=O)N[C@H](C(=O)N[C@@H](CO)C(=O)N[C@@H](CCC(N)=O)C(=O)N[C@H](C(=O)N[C@@H](CCC(N)=O)C(=O)N[C@@H](CC(=O)O)C(=O)N1CCC[C@H]1C(=O)N[C@@H](CC(N)=O)C(=O)N[C@@H](CC(=O)O)C(=O)N[C@@H](CCC(N)=O)C(=O)N[C@@H](Cc1ccc(O)cc1)C(=O)N[C@@H](CCC(=O)O)C(=O)N1CCC[C@H]1C(=O)N[C@@H](Cc1ccccc1)C(=O)O)C(C)C)C(C)C` [copper-64 labelled] is reported as 8.14 ± 0.8 %ID/g (C57BL/6 mice, male, tumour-free, small intestine; 2 h).
For `CSCC[C@H](N)C(=O)N[C@@H](C)C(=O)N[C@@H](Cc1c[nH]c2ccccc12)C(=O)N[C@@H](Cc1c[nH]cn1)C(=O)N[C@@H](CC(=O)O)C(=O)N[C@@H](CC(=O)O)C(=O)N[C@@H](CCC(=O)O)C(=O)N[C@@H](CCC(=O)O)C(=O)N[C@@H](Cc1ccccc1)C(=O)N[C@@H](C)C(=O)N[C@@H](CCCNC(=N)N)C(=O)N[C@@H](CCCNC(=N)N)C(=O)N[C@@H](CCCNC(=N)N)C(=O)N[C@@H](CCCNC(=N)N)C(=O)NCCCCCC(=O)NCCCCC(NC(=O)CCCCCNC(=O)[C@H](CCCNC(=N)N)NC(=O)[C@H](CCCNC(=N)N)NC(=O)[C@H](CCCNC(=N)N)NC(=O)[C@H](CCCNC(=N)N)NC(=O)[C@H](C)NC(=O)[C@H](Cc1ccccc1)NC(=O)[C@H](CCC(=O)O)NC(=O)[C@H](CCC(=O)O)NC(=O)[C@H](CC(=O)O)NC(=O)[C@H](CC(=O)O)NC(=O)[C@H](Cc1c[nH]cn1)NC(=O)[C@H](Cc1c[nH]c2ccccc12)NC(=O)[C@H](C)NC(=O)[C@@H](N)CCSC)C(=O)NCCCCC(NC(=O)C(CCCCNC(=O)CCCCCNC(=O)[C@H](CCCNC(=N)N)NC(=O)[C@H](CCCNC(=N)N)NC(=O)[C@H](CCCNC(=N)N)NC(=O)[C@H](CCCNC(=N)N)NC(=O)[C@H](C)NC(=O)[C@H](Cc1ccccc1)NC(=O)[C@H](CCC(=O)O)NC(=O)[C@H](CCC(=O)O)NC(=O)[C@H](CC(=O)O)NC(=O)[C@H](CC(=O)O)NC(=O)[C@H](Cc1c[nH]cn1)NC(=O)[C@H](Cc1c[nH]c2ccccc12)NC(=O)[C@H](C)NC(=O)[C@@H](N)CCSC)NC(=O)CCCCCNC(=O)[C@H](CCCNC(=N)N)NC(=O)[C@H](CCCNC(=N)N)NC(=O)[C@H](CCCNC(=N)N)NC(=O)[C@H](CCCNC(=N)N)NC(=O)[C@H](C)NC(=O)[C@H](Cc1ccccc1)NC(=O)[C@H](CCC(=O)O)NC(=O)[C@H](CCC(=O)O)NC(=O)[C@H](CC(=O)O)NC(=O)[C@H](CC(=O)O)NC(=O)[C@H](Cc1c[nH]cn1)NC(=O)[C@H](Cc1c[nH]c2ccccc12)NC(=O)[C@H](C)NC(=O)[C@@H](N)CCSC)C(N)=O` (stereo partly drawn), “mean tissue distribution” read 1.43% (C57BL/6 mouse female, femur; dose not given, 6 h; relative to: total).
`COc1ccc(CNc2ccc3c(c2)S(=O)(=O)C=C3)cc1`: “red cell distribution width SD” 31.8 fL (male C57BL/6 mice, blood; intraperitoneal, 20 mg/kg, day 8, group average).
For `COc1ccccc1-c1n[nH]c2nc(NC3CCN(C(=O)Cc4ccc(F)cc4F)CC3)ncc12`, the relative abundance was 1.09 (bead binding, competition bead pull-down, item: LINJ.10.0330; Leishmania donovani extract; 10 µM; relative to: vehicle).
For `CS(C)(=O)=Nc1ccc(-c2ccc(-c3nc4cc(O[C@@H]5CO[C@H]6[C@@H]5OC[C@H]6O)[nH]c4cc3F)cc2)cc1`, the inhibition was -11% (NEK9 (Homo sapiens, UniProt Q8TD19); enzyme activity, inhibitor; 10 µM).
